Earlier results, collected from citations in different studies.
Numbered parts are unrelated; values within a part may stem from several laboratories. Several values in a cell are separate wells, animals, samples, runs or records.

Sample 1
Structure (SMILES): C=CC(=O)N1CCN(c2ncnc3c(F)c(-c4c(O)cccc4F)c(Cl)cc23)CC1
Refers to: phospho-ERK
| cell line | setting | ERK phosphorylation |
| --- | --- | --- |
| MIA PaCa-2 | 13.7 nM | 102% and 104% |
| NCI-H358 | 0.04575 µM | 17.4% and 12.8% |
| MIA PaCa-2 | 41.2 nM | 97% and 94.4% |
| NCI-H358 | 1 µM | 2.52% and 2.32% |
| MIA PaCa-2 | 1.11 µM | 36.9% and 31.4% |
| NCI-H358 | 0.5229 µM | 4.24% and 9.8% |
| MIA PaCa-2 | 1.5 nM | 101% and 102% |
| MIA PaCa-2 | 123 nM | 87.8% and 93.6% |

Sample 2
SMILES: CN(C)CC/C=C1/c2ccccc2Sc2ccc(Cl)cc21
Cell line: MCF7
Method: microarray
Concentration: concentration not given
| assay | scale | fold change |
| --- | --- | --- |
| refers to: MAFF mRNA (probe 36711_at) | reference: vehicle (DMSO) | 7.83 |
| refers to: SYNGR3 mRNA | reference: DMSO | 1.4 |
| refers to: ISG20 mRNA (probe 33304_at) | reference: vehicle (DMSO) | 1.74 |

Sample 3
SMILES: CC[C@H](CC(=O)O)n1c(=O)c2ncccc2n(Cc2cn(C)c3cc(C)cc(C)c23)c1=O
| target | assay | IC50 [nM] |
| --- | --- | --- |
| CMA1 | cellular activity | 198 |
| cathepsin G | Eurofins protease panel | 110 |
| CMA1 | biochemical activity | 0.4 |

Sample 4
Organism: Toxoplasma gondii
Observed: parasite growth
Concentration: concentration not given
Setting: drug repurposing screen
| SMILES | activity class |
| --- | --- |
| CCOC(=O)[C@H](CCc1ccccc1)N[C@H]1CCc2ccccc2N(CC(=O)O)C1=O | inactive |
| C[C@H]1O[C@H](O[C@H]2[C@H](O)[C@@H](O)[C@@H](O[C@H]3[C@H](O)[C@@H](O)C(O)O[C@@H]3CO)O[C@@H]2CO)[C@H](O)[C@@H](O)[C@@H]1N[C@H]1C=C(CO)[C@@H](O)[C@H](O)[C@H]1O (stereo partly shown) | inactive |
| CC(C)NCC(O)COc1cccc2ccccc12.Cl (stereo not shown) | inactive |
| COc1cc([C@@H]2c3cc4c(cc3[C@@H](O[C@@H]3O[C@@H]5CO[C@@H](C)O[C@H]5[C@H](O)[C@H]3O)[C@H]3COC(=O)[C@H]23)OCO4)cc(OC)c1O | inactive |
| Cc1c(OCC(F)(F)F)ccnc1C[S+]([O-])c1nc2ccccc2[nH]1 (stereo not shown) | inactive |
| CC(C)NCC(O)COc1ccc(CC(N)=O)cc1 (stereo not shown) | inactive |
| O=C(c1ccc(F)cc1)C1CCN(CCn2c(=S)[nH]c3ccccc3c2=O)CC1 | inactive |
| CC[C@H](C)C(=O)O[C@H]1CCC=C2C=C[C@H](C)[C@H](CC[C@@H]3C[C@@H](O)CC(=O)O3)[C@H]21 | inactive |
| COc1ccc2c(c1)c(CC(=O)O)c(C)n2C(=O)c1ccc(Cl)cc1 | inactive |
| CC1=C(/C=C/C(C)=C/C=C/C(C)=C/C(=O)O)C(C)(C)CCC1 | inactive |
| CC(=O)N1CCN(c2ccc(OCC3COC(Cn4ccnc4)(c4ccc(Cl)cc4Cl)O3)cc2)CC1 (stereo not shown) | inactive |
| COc1ccccc1N1CCN(CCCNc2cc(=O)n(C)c(=O)n2C)CC1.Cl | inactive |
| O=[N+]([O-])c1cccc2cn[nH]c12 | inactive |
| OCCN(CCO)c1nc(N2CCCCC2)c2nc(N(CCO)CCO)nc(N3CCCCC3)c2n1 | inactive |
| COCCOC(=O)C1=C(C)NC(C)=C(C(=O)OC(C)C)C1c1cccc([N+](=O)[O-])c1 (stereo not shown) | inactive |

Other studies, line by line
Method: hydrocarbon/water
pH: 7.4
| SMILES | logD |
| --- | --- |
| CC[C@@H]1C(=O)N(C)[C@@H](CC)C(=O)N[C@@H](CC(C)C)C(=O)N2CCC[C@@H]2C(=O)N(C)[C@@H](Cc2ccccc2)C(=O)N[C@@H](CC(C)C)C(=O)N1C | 1.74 |
| CC(C)C[C@@H]1NC(=O)[C@H](Cc2ccccc2)NC(=O)[C@H]2CCCN2C(=O)[C@H](CC(C)C)NC(=O)[C@H](CC(C)C)NC(=O)[C@@H](CC(C)C)NC1=O | 0.83 |

Excerpt of the above (sample 4):
| SMILES | activity class |
| --- | --- |
| C[C@H]1O[C@H](O[C@H]2[C@H](O)[C@@H](O)[C@@H](O[C@H]3[C@H](O)[C@@H](O)C(O)O[C@@H]3CO)O[C@@H]2CO)[C@H](O)[C@@H](O)[C@@H]1N[C@H]1C=C(CO)[C@@H](O)[C@H](O)[C@H]1O (stereo partly shown) | inactive |
| O=C(c1ccc(F)cc1)C1CCN(CCn2c(=S)[nH]c3ccccc3c2=O)CC1 | inactive |
| OCCN(CCO)c1nc(N2CCCCC2)c2nc(N(CCO)CCO)nc(N3CCCCC3)c2n1 | inactive |
| COc1ccccc1N1CCN(CCCNc2cc(=O)n(C)c(=O)n2C)CC1.Cl | inactive |
| CC(C)NCC(O)COc1ccc(CC(N)=O)cc1 (stereo not shown) | inactive |
